Experimental data from different studies.
Compare with care: the assays were run in different laboratories. ± gives the spread as reported.

SMILES | assay | test system | conditions | how to read | endpoint | value
CCCC[C@H](NC(=O)CNC(=O)CNC(=O)c1ccc(NN)nc1)C(=O)N[C@H]1CC(=O)NCCCC[C@@H](C(N)=O)NC(=O)[C@H](Cc2c[nH]c3ccccc23)NC(=O)[C@H](CCCNC(=N)N)NC(=O)[C@@H](Cc2ccccc2)NC(=O)[C@H](Cc2c[nH]cn2)NC1=O [technetium-99m labelled] | – | C57 mouse, B16/F1 melanoma, lung | 2 h, with: L-lysine 12 mg | – | uptake | 0.17 ± 0.02 %ID/g
C[C@@H](O)[C@H](NC(=O)[C@@H]1CSSC[C@H](NC(=O)[C@@H](Cc2ccccc2)NC(=O)CN2CCCN3CCN(CCCN(CP(=O)(O)O)CC3)CC2)C(=O)N[C@@H](Cc2ccc(O)cc2)C(=O)N[C@H](Cc2c[nH]c3ccccc23)C(=O)N[C@@H](CCCCN)C(=O)N[C@@H]([C@@H](C)O)C(=O)N1)C(=O)O [copper-64 labelled] | – | male Lewis rat, AR-42J tumour-bearing, SSTR2-expressing tissues | dose not given, 4 h, with: Y3-TATE 200 µg coinjected | relative to: unblocked | uptake reduction by blocking | ≥ 90%
CSCC[C@H](NC(=O)[C@H](CC(C)C)NC(=O)[C@H](Cc1c[nH]cn1)NC(=O)CNC(=O)[C@@H](NC(=O)[C@H](C)NC(=O)[C@H](Cc1c[nH]c2ccccc12)NC(=O)[C@H](CCC(N)=O)NC(=O)CCCCCNC(=O)CNC(=O)CNC(=O)CNC(=O)CSC(C)=O)C(C)C)C(N)=O [technetium-99m labelled] | – | Swiss mouse, heart | intravenous, 18.5 MBq, 90 min | – | tissue uptake | 0.06 ± 0.01 %ID/g
CSCC[C@H](NC(=O)[C@H](CC(C)C)NC(=O)[C@H](Cc1c[nH]cn1)NC(=O)CNC(=O)[C@@H](NC(=O)[C@H](C)NC(=O)[C@H](Cc1c[nH]c2ccccc12)NC(=O)[C@H](CCC(N)=O)NC(=O)CCCCNC(=O)CSCCSCCP(CO)CO)C(C)C)C(N)=O [technetium-99m labelled] | – | CF-1 mouse, female, faeces | intravenous, dose not given, 24 h | – | excreted dose | 52.8%
N=C(N)NCCC[C@@H]1NC(=O)[C@H](CCCCNC(=O)CNC(=O)CNC(=O)CNC(=O)CC[C@H](NC(=O)CCOCCOCCOCCOCCNC(=O)CC[C@H](NC(=O)CN2CCN(CC(=O)O)CCN(CC(=O)O)CCN(CC(=O)O)CC2)C(=O)NCCOCCOCCOCCOCCC(=O)N[C@@H](CCC(=O)NCC(=O)NCC(=O)NCC(=O)NCCCC[C@@H]2NC(=O)[C@@H](Cc3ccccc3)NC(=O)[C@H](CC(=O)O)NC(=O)CNC(=O)[C@H](CCCNC(=N)N)NC2=O)C(=O)NCC(=O)NCC(=O)NCC(=O)NCCCC[C@@H]2NC(=O)[C@@H](Cc3ccccc3)NC(=O)[C@H](CC(=O)O)NC(=O)CNC(=O)[C@H](CCCNC(=N)N)NC2=O)C(=O)NCC(=O)NCC(=O)NCC(=O)NCCCC[C@@H]2NC(=O)[C@@H](Cc3ccccc3)NC(=O)[C@H](CC(=O)O)NC(=O)CNC(=O)[C@H](CCCNC(=N)N)NC2=O)NC(=O)[C@@H](Cc2ccccc2)NC(=O)[C@H](CC(=O)O)NC(=O)CNC1=O [indium-111 labelled] | – | female athymic nude mouse | intravenous, 4 h, U-87 MG glioma xenograft | relative to: tumour over bone | tumour to bone ratio | 7.87 ± 2.44
N=C(N)NCCC[C@@H]1NC(=O)[C@H](CCCCNC(=O)c2ccc(CNC34CNCCNCC(NCc5ccc(C(=O)NCCCC[C@@H]6NC(=O)[C@@H](Cc7ccc(O)cc7)NC(=O)[C@H](CC(=O)O)NC(=O)CNC(=O)[C@H](CCCNC(=N)N)NC6=O)cc5)(CNCCNC3)CNCCNC4)cc2)NC(=O)[C@@H](Cc2ccc(O)cc2)NC(=O)[C@H](CC(=O)O)NC(=O)CNC1=O [copper-64 labelled] | microPET | female athymic nude mouse, U-87 MG xenograft, U-87 MG tumour | intravenous, 1 h, with: c(RGDyK) 10 mg/kg blocking | – | tumour uptake | 0.69 ± 0.12 %ID/g
N=C(N)NCCC[C@@H]1NC(=O)[C@H](CCCCNC(=O)CCOCCOCCOCCOCCNC(=O)CC[C@H](NC(=O)CCOCCOCCOCCOCCNC(=O)CC[C@H](NC(=O)CN2CCN(CC(=O)O)CCN(CC(=O)O)CCN(CC(=O)O)CC2)C(=O)NCCOCCOCCOCCOCCC(=O)N[C@@H](CCC(=O)NCCOCCOCCOCCOCCC(=O)NCCCC[C@@H]2NC(=O)[C@@H](Cc3ccccc3)NC(=O)[C@H](CC(=O)O)NC(=O)CNC(=O)[C@H](CCCNC(=N)N)NC2=O)C(=O)NCCOCCOCCOCCOCCC(=O)NCCCC[C@@H]2NC(=O)[C@@H](Cc3ccccc3)NC(=O)[C@H](CC(=O)O)NC(=O)CNC(=O)[C@H](CCCNC(=N)N)NC2=O)C(=O)NCCOCCOCCOCCOCCC(=O)NCCCC[C@@H]2NC(=O)[C@@H](Cc3ccccc3)NC(=O)[C@H](CC(=O)O)NC(=O)CNC(=O)[C@H](CCCNC(=N)N)NC2=O)NC(=O)[C@@H](Cc2ccccc2)NC(=O)[C@H](CC(=O)O)NC(=O)CNC1=O [indium-111 labelled] | – | athymic nude mice, female, U-87 MG glioma xenograft, tumour and kidney | intravenous, 0.5 h | relative to: tumour over kidney | tumour to tissue ratio | 0.99 ± 0.19
CSCC[C@H](NC(=O)[C@H](CC(C)C)NC(=O)CNC(=O)[C@H](Cc1ccccc1)NC(=O)[C@H](Cc1ccccc1)NC(=O)[C@H](CCC(N)=O)NC(=O)[C@H](CCC(N)=O)NC(=O)[C@@H]1CCCN1C(=O)[C@H](CCCCNC(=O)c1ccc(-c2c3ccc(=[N+](C)C)cc-3oc3cc(N(C)C)ccc23)c(C(=O)[O-])c1)NC(=O)[C@@H]1CCCN1C(=O)[C@@H](N)CCCNC(=N)N)C(N)=O | – | PBS | 10 nM, pH 7.4 | – | excitation maximum | 560 nm
N=C(N)NCCC[C@@H]1NC(=O)[C@H](CCCCNC(=O)CC[C@H](NC(=O)CCOCCOCCOCCOCCNC(=O)CC[C@H](NC(=O)CN2CCN(CC(=O)O)CCN(CC(=O)O)CCN(CC(=O)O)CC2)C(=O)NCCOCCOCCOCCOCCC(=O)N[C@@H](CCC(=O)NCCCC[C@@H]2NC(=O)[C@@H](Cc3ccccc3)NC(=O)[C@H](CC(=O)O)NC(=O)CNC(=O)[C@H](CCCNC(=N)N)NC2=O)C(=O)NCCCC[C@@H]2NC(=O)[C@@H](Cc3ccccc3)NC(=O)[C@H](CC(=O)O)NC(=O)CNC(=O)[C@H](CCCNC(=N)N)NC2=O)C(=O)NCCCC[C@@H]2NC(=O)[C@@H](Cc3ccccc3)NC(=O)[C@H](CC(=O)O)NC(=O)CNC(=O)[C@H](CCCNC(=N)N)NC2=O)NC(=O)[C@@H](Cc2ccccc2)NC(=O)[C@H](CC(=O)O)NC(=O)CNC1=O [indium-111 labelled] | – | athymic nude mice, female, U-87 MG glioma xenograft, tumour and lungs | intravenous, 0.5 h | relative to: tumour over lungs | tumour to tissue ratio | 4.06 ± 1.88
CCCC[C@H](NC(=O)CCCCCCCNC(=O)c1ccc(NN)nc1)C(=O)N[C@H]1CC(=O)NCCCC[C@@H](C(N)=O)NC(=O)[C@H](Cc2c[nH]c3ccccc23)NC(=O)[C@H](CCCNC(=N)N)NC(=O)[C@@H](Cc2ccccc2)NC(=O)[C@H](Cc2c[nH]cn2)NC1=O [technetium-99m labelled] | – | C57 mouse, B16/F1 melanoma, pancreas | intravenous, 24 h | – | uptake | 0.06 ± 0.03 %ID/g

Some of these lines once more:
SMILES | assay | test system | conditions | how to read | endpoint | value
N=C(N)NCCC[C@@H]1NC(=O)[C@H](CCCCNC(=O)CC[C@H](NC(=O)CCOCCOCCOCCOCCNC(=O)CC[C@H](NC(=O)CN2CCN(CC(=O)O)CCN(CC(=O)O)CCN(CC(=O)O)CC2)C(=O)NCCOCCOCCOCCOCCC(=O)N[C@@H](CCC(=O)NCCCC[C@@H]2NC(=O)[C@@H](Cc3ccccc3)NC(=O)[C@H](CC(=O)O)NC(=O)CNC(=O)[C@H](CCCNC(=N)N)NC2=O)C(=O)NCCCC[C@@H]2NC(=O)[C@@H](Cc3ccccc3)NC(=O)[C@H](CC(=O)O)NC(=O)CNC(=O)[C@H](CCCNC(=N)N)NC2=O)C(=O)NCCCC[C@@H]2NC(=O)[C@@H](Cc3ccccc3)NC(=O)[C@H](CC(=O)O)NC(=O)CNC(=O)[C@H](CCCNC(=N)N)NC2=O)NC(=O)[C@@H](Cc2ccccc2)NC(=O)[C@H](CC(=O)O)NC(=O)CNC1=O [indium-111 labelled] | – | athymic nude mice, female, U-87 MG glioma xenograft, tumour and lungs | intravenous, 0.5 h | relative to: tumour over lungs | tumour to tissue ratio | 4.06 ± 1.88
